Measured values gathered from unrelated publications.
Lines come from different studies, so protocols differ. Values joined by “and” are separate records of one study, mostly repeats; a detail may differ. ± gives the spread as reported.

For `CSCCNc1nc(SCCC(F)(F)F)nc2c1ncn2[C@@H]1O[C@H](COP(=O)(O)OP(=O)(O)C(Cl)(Cl)P(=O)(O)O)[C@@H](O)[C@H]1O`, “patients with IPA above 90%” read 5.1% (platelet aggregation, light transmission aggregometry; human patients, platelet-rich plasma; dose not given, 2 h, with: TRAP 5 µM).
Under “pathway activation z-score”, `Cn1cc(Nc2nccc(-c3ccc4c(c3)CN(C3COC3)CC[C@H]4NC(=O)c3cn(C(C)(C)C)nn3)n2)cn1` is recorded as 2.5 (item: Endocannabinoid Neuronal Synapse Pathway; splenic B cells, Mus musculus; 30 mg/kg, with: IgD activation; relative to: vehicle, direction not given).
`O=S(=O)(NCCNC/C=C/c1ccc(Br)cc1)c1cccc2cnccc12`: “embryos reaching 8-cell” 0% (mouse zygotes; 20 µM, 120 h post-hCG).
With `CCCCCCNc1nc(NC2CCN(C)CC2)c2cc(OC)c(OC)cc2n1` the EC50 was 5.93 µM (Toxoplasma gondii; parasite growth; HFF, bradyzoite, alkaline-induced).
`Cn1cc(-c2ccc(-c3cncc(Cl)c3N3CCC4(CCNC4=O)CC3)cc2)cn1`: “log2 fold change” -1.49 (COLO 205; gene expression, microarray, item: PFKFB4 mRNA; concentration not given, 2 h; relative to: untreated cells).
`O=C1Nc2cc3[nH]nc(-c4ccncc4)c3cc2CN1Cc1ccccc1`: “complete response, best response” 0% (RECIST v1.1; human, relapsed or refractory advanced solid tumours; intravenous, 0.45 mg/kg, pooled schedules).
The sarcomere length of `CC(C)NCC(O)c1ccc(O)c(O)c1` (stereo not drawn) is reported as 1.6 µm (ventricular cardiomyocytes, C57BL/6 mouse; dose not given, 0.58 s).
Under “change in HIV-1 RNA”, `COC[C@@H](c1ccc(C(F)(F)F)cc1)N1CCN(C2(C)CCN(C(=O)c3c(C)ncnc3C)CC2)C[C@@H]1C` is recorded as -1.3 log10 copies/mL (HIV-1 patients, plasma; 10 mg, week 2; relative to: baseline).
`N#Cc1ccc2c(c1)[C@H]1CCCN(C(=O)c3ccc4[nH]cnc4c3)[C@H]1C2` gave an HOMA-IR change of 1.2 mmol/L × mU/L (human, Phase II trial; 20 mg once daily, day 28, adjusted mean; relative to: baseline).
For `OC(CCN1CCCCC1)(c1ccccc1)C1CC2C=CC1C2` (stereo not drawn), “change in EEG Beta3-power Pz-O1” read 5.7% (resting-state EEG; healthy elderly humans; oral, 2 mg, eyes closed, LS mean; relative to: baseline).
`COc1cc2cc(-c3ccc(CC(=O)Nc4cc(C(C)(C)C(F)(F)F)no4)cn3)cnc2cc1OC`: “best overall response CR” 0% (RECIST v1.1; human RET fusion-positive NSCLC; 75 mg, phase I).
`C[C@]12CC[C@@H]3c4ccc(O)cc4CC[C@H]3[C@@H]1CC[C@@H]2O` gave a mRNA level of 0.0917 (RT-qPCR, item: CO; Arabidopsis thaliana ING1:FLAG seedlings; 20 µM, 6 h after treatment, sampled at ZT12, replicate rep2, unit not given; relative to: TUB2).
Under “GSEA enrichment score”, `CN(C)C(=O)c1cc2cnc(Nc3ccc(N4CCNCC4)cn3)nc2n1C1CCCC1` is recorded as 0.513 (RNA-seq GSEA, item: HALLMARK_CHOLESTEROL_HOMEOSTASIS; MB002 tumour; concentration not given, in vivo; relative to: vehicle, direction not given).
`CC(=O)Oc1cc2c(s1)CCN(C(C(=O)C1CC1)c1ccccc1F)C2` (stereo not drawn): “patients with IPA above 90%” 9.5% (platelet aggregation, light transmission aggregometry; human patients, platelet-rich plasma; 3 h, with: TRAP 5 µM).
`COc1ccc2c(c1)CC[C@@H]1[C@@H]2CC[C@]2(C)[C@@H](NCCCCCCN3C(=O)C=CC3=O)CC[C@@H]12` has a distance travelled of 39 m and 12 m and 35 m and 23 m (open field test; humanized UT (+/h+) mice, SAH model; dose not given).
Under “complete response rate”, `Nc1ncnc2c1ncn2[C@H]1C[C@@H]2OP(=O)(O)OC[C@H]3O[C@@H](n4cnc5c(N)ncnc54)C[C@@H]3OP(=O)(O)OC[C@H]2O1` is recorded as 80% (BALB/c mouse CT26 tumour; intratumoral, 0.5 mg/kg days 9,12,15).
For `Cc1cc(C)c(CNC(=O)c2cc(Cl)c3c(c2C)O[C@@](C)([C@H]2CC[C@H](N(C)C)CC2)O3)c(=O)[nH]1`, “best overall response CR” read 11% (IWG 2007 criteria; human, relapsed/refractory B-cell NHL; dose not given).
For `O=C(O)CNC(=O)Cc1ccccc1`, the sarcomere length was 1.72 µm (ventricular cardiomyocytes, C57BL/6 mouse; dose not given, 0.664 s).
The necrotic area of `COc1ccc(C2=N[C@@H](c3ccc(Cl)cc3)[C@@H](c3ccc(Cl)cc3)N2C(=O)N2CCNC(=O)C2)c(OC(C)C)c1` is reported as 13.6% and 15.4% and 11.7% and 10.3% and 7.4% (histology; Dmd C3333Y mice, gastrocnemius; dose not given).
`COc1cc2nccc(Oc3ccc(NC(=O)NC4CC4)c(Cl)c3)c2cc1C(N)=O` has a Hill coefficient of 4.13 (item: Ang-2; human, serum; PK/PD model, bootstrap median).
`Cc1n[nH]c2ccc(-c3cc(OC[C@@H](N)Cc4ccccc4)cnc3-c3ccoc3)cc12`: “log2 fold change” -0.586 (kinase binding, competitor, MIB/MS competition, item: KIN3; Candida albicans cell lysate; 10 µM; relative to: DMSO).
Under “tumour volume difference”, `C=CCn1c(=O)c2cnc(Nc3ccc(N4CCN(C)CC4)cc3)nc2n1-c1ccc2c(n1)[C@@](O)(CC)CC2` is recorded as 184 ± 5.9 mm3 (T47D xenograft, BALB/c nude mice; oral, 80 mg/kg once daily x 28, day 27).
Under “pancreas to body weight ratio”, `Cc1nn(-c2nc3c(F)cc(F)cc3s2)c(O)c1C(c1ccc(C(F)(F)F)cc1)c1c(C)nn(-c2nc3c(F)cc(F)cc3s2)c1O` is recorded as 12.9 mg/g and 12.1 mg/g and 10.6 mg/g and 11.3 mg/g (mouse, cerulein-induced acute pancreatitis; 25 mg/kg).
`CCCCCN1C[C@H](O)[C@@H](O)[C@H](O)[C@@H]1CO`: “number of decreased sphingolipids” 31 (mouse Hexb-/-, liver; 30 mg/kg/day; relative to: untreated Hexb-/- mice).
`CO[C@H]1CC[C@H](N2C(=O)CNc3ncc(-c4ccc(C(C)(C)O)nc4)nc32)CC1` — result for “pAKT change from baseline”: -46.9% (flow cytometry; stimulated monocytes, human, blood; 30 mg single dose, 1.5 h, median; relative to: baseline).
For `COc1ncc(-c2nc3c(n2C(C)C)[C@H](c2ccc(Cl)cc2)N(c2cc(Cl)cn(C)c2=O)C3=O)c(OC)n1`, “best overall response” read 60% (International Working Group criteria; human acute myeloid leukemia patients; oral, 250 mg, response TF, high-dose, recommended dose for expansion).
Under “log2 fold change”, `N#Cc1ccc2c(-c3ccncc3)c(-c3ccc(F)cc3)nn2c1` is recorded as -0.352 (kinase binding, competitor, MIB/MS competition, item: ATG1; Candida albicans cell lysate; 1 µM; relative to: DMSO).
Under TAPSE, `O=C1c2ccncc2C(=O)c2c1[nH]c1ccccc21` is recorded as “increased” (female monocrotaline PAH rat; dose not given; relative to: vehicle).
For `Nc1nc2cc(-c3ccc4ncc(C(=O)N5CCOCC5)n4c3)ccc2o1`, “clinical benefit rate” read 32% (RECIST v1.1; advanced solid tumour patients; dose not given, Mon-Wed-Fri dosing).
Under “change from baseline”, `NC(=O)c1cnc2[nH]ccc2c1N[C@@H]1[C@@H]2CC3C[C@H]1C[C@@](O)(C3)C2` is recorded as -0.12% (flow cytometry, item: CD8+ central memory T cells; Japanese healthy subjects, peripheral blood; oral, 100 mg twice daily, day 4).
`C[C@H](Oc1ccc(Br)cc1-c1ccon1)C(=O)O`: “difference from placebo” 6.54% (first response peak; human, tibialis anterior muscle; 1200 mg, 30-15 Hz, SAD).
Under “fractional hepatic DNL”, `COc1ccccc1[C@H](Cn1c(=O)n(C(C)(C)C(=O)O)c(=O)c2c(C)c(-c3ncco3)sc21)OC1CCOCC1` is recorded as 8.63 % new palmitate ([1-13C]acetate infusion, isotopomer analysis; overweight or obese healthy men, plasma VLDL-TG palmitate; oral, 200 mg single dose, 10 h post-dose, with: oral fructose).
`O=C(COc1ccc(Cl)cc1)NC12CC(c3nnc([C@H]4C[C@@H](OC(F)(F)F)C4)o3)(C1)C2` — result for “ATF4 protein change”: -50.2% (healthy human, PBMC; 45 mg once daily, day 15, 24 h post-dose, median, with: sodium arsenite ex vivo; relative to: baseline).
The EC90 of `COCCOC(=O)C1=C(C)NC(C)=C(C(=O)OC/C=C/c2ccccc2)C1c1cccc([N+](=O)[O-])c1` (stereo not drawn) is reported as 7.79 µM (Toxoplasma gondii; parasite growth; HFF, bradyzoite, glutamine-induced).
For `CCN(Cc1nc2c(N)nc3cc(-c4cc[nH]n4)ccc3c2[nH]1)C(C)=O`, “mean fold change” read 1.1 (immunohistochemistry, item: CD163+ TAMs; patients with advanced solid tumours, non-injected tumour lesions; dose not given, monotherapy; relative to: baseline).
`CN[C@@H]1COc2c(S(=O)(=O)NC(=O)Nc3c4c(cc5c3CCC5)CCC4)cnn2C1` has an inhibition of 102% (item: IL-18; human participants, whole blood ex vivo; 450 mg single dose, 4 h, IL-18, circulating, adjusted for, with: LPS/ATP; relative to: baseline).
`C[C@@H]1CCC[C@H](n2cnc(-c3cc(Cl)ccc3-n3cc(Cl)nn3)cc2=O)c2cc(ccn2)-c2c(cnn2C(F)F)NC1=O`: “concentration for aPTT prolongation” 530 nM (cynomolgus monkey plasma; IC2× aPTT, STA-PTT reagent).
`C=Cc1c(C)c2cc3nc(c(CC(=O)O)c4[nH]c(cc5nc(cc1[nH]2)C(C)=C5CC)c(C)c4C(=O)O)[C@@H](CCC(=O)O)[C@@H]3C` — result for “CD8+ T cells”: 20% and 20.2% and 19.9% (flow cytometry; 4T1 tumour-bearing mice, lymph nodes; 2.5 mg/kg).
`CN(C)C(=O)Oc1cccc([N+](C)(C)C)c1` gave a train-of-four ratio of 98.5 (neuromuscular block reversal; rat; dose not given, 19 (unit not given), with: cisatracurium; relative to: T1 twitch).
For `CC(C)[C@H](C(=O)Nc1ccc(C(=O)NO)cc1)c1ccccc1`, “tumour volume change” read -6.66% (volumetric MRI; human, left schwannoma; dose not given, day 809; relative to: baseline).
`c1ccc(-c2n[nH]cc2-c2ccnc3ccccc23)nc1` — result for “log2 fold change”: 1.25 (kinase binding, competitor, MIB/MS competition, item: PKH3; Candida albicans cell lysate; 1 µM; relative to: DMSO).
`COc1ccc(-c2cncc(N[C@@H](C)c3cccc(NC(=O)c4cncc(C)c4)c3)n2)cc1OC` gave a fold change of 0.704 (item: rno-miR-224-5p; rat SU5416/hypoxia model, lung; dose not given; relative to: SU5416/hypoxia vehicle).
`C[C@H]1C[C@H]2CSC(N)=N[C@@]2(c2nc(NC(=O)c3ccc(OC(F)F)cn3)cs2)CO1`: “percent change from baseline” -69.4% (item: total Aβ; healthy adults, plasma; 540 mg single dose, 24 h post-dose; relative to: placebo).
For `CC(C)n1c(C2CCNCC2)nc2c([N+](=O)[O-])c(Br)c(Br)cc21`, “maximum blast change” read 321% (patients with AML, bone marrow; all dose levels; relative to: baseline).
For `NCC(=O)Nc1cncc(-c2nn3c(=O)cc(N4CCNCC4)nc3s2)c1`, the inhibition was 19.6% (ADP-induced platelet aggregation, light transmission aggregometry; human, stable CAD on aspirin, ex vivo platelets; subcutaneous, 0.05 mg/kg, 5 min post-dose, mean value, with: ADP 20 µM).
Under “log2 fold change”, `N#Cc1ccn2c(-c3ccncc3)c(-c3ccc(F)cc3)nc2c1` is recorded as -0.438 (kinase binding, competitor, MIB/MS competition, item: AKL1; Candida albicans cell lysate; 10 µM; relative to: DMSO).
With `C[C@@H](O)CCOC(=O)C[C@@H](C)O` the metabolite level was 7.68 ± 0.41 µmol/L (item: Pro; human, plasma; 60 min, log2-transformed values).
`Cc1ccc([C@@H]2O[C@H](CO)[C@@H](O)[C@H](O)[C@H]2O)cc1Cc1ccc(-c2ccc(F)cc2)s1` — result for “change, mean 24 h, plasma glucose”: -25 mg/dL (Japanese type 2 diabetes patients; 25 mg, day 1; relative to: day 0).

Excerpt of the above:
`Cn1cc(-c2ccc(-c3cncc(Cl)c3N3CCC4(CCNC4=O)CC3)cc2)cn1`: “log2 fold change” -1.49 (COLO 205; gene expression, microarray, item: PFKFB4 mRNA; concentration not given, 2 h; relative to: untreated cells).
For `NCC(=O)Nc1cncc(-c2nn3c(=O)cc(N4CCNCC4)nc3s2)c1`, the inhibition was 19.6% (ADP-induced platelet aggregation, light transmission aggregometry; human, stable CAD on aspirin, ex vivo platelets; subcutaneous, 0.05 mg/kg, 5 min post-dose, mean value, with: ADP 20 µM).
`COc1ccc2c(c1)CC[C@@H]1[C@@H]2CC[C@]2(C)[C@@H](NCCCCCCN3C(=O)C=CC3=O)CC[C@@H]12` has a distance travelled of 39 m and 12 m and 35 m and 23 m (open field test; humanized UT (+/h+) mice, SAH model; dose not given).
For `Cc1cc(C)c(CNC(=O)c2cc(Cl)c3c(c2C)O[C@@](C)([C@H]2CC[C@H](N(C)C)CC2)O3)c(=O)[nH]1`, “best overall response CR” read 11% (IWG 2007 criteria; human, relapsed/refractory B-cell NHL; dose not given).
Under “change in HIV-1 RNA”, `COC[C@@H](c1ccc(C(F)(F)F)cc1)N1CCN(C2(C)CCN(C(=O)c3c(C)ncnc3C)CC2)C[C@@H]1C` is recorded as -1.3 log10 copies/mL (HIV-1 patients, plasma; 10 mg, week 2; relative to: baseline).
For `Nc1nc2cc(-c3ccc4ncc(C(=O)N5CCOCC5)n4c3)ccc2o1`, “clinical benefit rate” read 32% (RECIST v1.1; advanced solid tumour patients; dose not given, Mon-Wed-Fri dosing).
`N#Cc1ccc2c(c1)[C@H]1CCCN(C(=O)c3ccc4[nH]cnc4c3)[C@H]1C2` gave an HOMA-IR change of 1.2 mmol/L × mU/L (human, Phase II trial; 20 mg once daily, day 28, adjusted mean; relative to: baseline).
